Results gathered from unrelated publications.
Every numbered part comes from another study and shows a few of its results, in no order. Substitutions count along the parent as printed.

Block 1
Target: ABI1, truncated, D143A, DHFR fusion (Arabidopsis thaliana)
Method: DHFR PCA, deep sequencing
Medium: yeast
Notes: methotrexate growth selection, single substitutions
Together with: (+)-ABA 1.4 µM
Reference: wild-type fitted maximum
Reading: higher = stronger binding
Parent: PYL1, truncated, DHFR fusion (Arabidopsis thaliana); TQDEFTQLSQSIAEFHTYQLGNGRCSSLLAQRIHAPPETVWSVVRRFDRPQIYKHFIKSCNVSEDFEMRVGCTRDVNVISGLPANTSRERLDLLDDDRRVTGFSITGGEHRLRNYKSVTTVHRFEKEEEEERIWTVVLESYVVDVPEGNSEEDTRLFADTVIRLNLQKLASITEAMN; partner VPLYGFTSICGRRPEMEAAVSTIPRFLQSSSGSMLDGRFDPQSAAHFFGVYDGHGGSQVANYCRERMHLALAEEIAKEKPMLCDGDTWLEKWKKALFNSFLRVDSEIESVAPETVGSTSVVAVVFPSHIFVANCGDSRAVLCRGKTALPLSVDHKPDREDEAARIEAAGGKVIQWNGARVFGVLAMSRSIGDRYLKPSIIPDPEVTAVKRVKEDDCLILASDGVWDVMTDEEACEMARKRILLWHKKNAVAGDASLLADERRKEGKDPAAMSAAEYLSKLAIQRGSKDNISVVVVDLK
| Substitution | relative binding score |
| --- | --- |
| S140H | 11.2% |
| R98Q | 42.6% |
| T39I | 45.3% |
| C25L | -5.19% |
| V145Y | -51.4% |
| L93C | 35.5% |
| L164I | 21.7% |
| R90L | 6.26% |
| T135W | -0.274% |
| R98N | 47.3% |
| T154F | -54.5% |
| V43T | 10.5% |
| L169P | 4.22% |
| L94Q | -2.33% |
| D92F | 6.89% |
| T120F | -4.58% |
| V161P | 0.866% |
| I133G | 78.4% |

Block 2
Target: Fragile X messenger ribonucleoprotein 1, C-terminal low-complexity region (Fmr1, Mus musculus, UniProt P35922)
Method: RNA Bind-n-Seq
Form: RNA
Medium: in vitro
Concentration: 200 nM
Notes: whole 134-nt RNA, ends assumed
Together with: 150 mM KCl
Reference: input library
Reading: higher = stronger binding
| Strand | log2 enrichment |
| --- | --- |
| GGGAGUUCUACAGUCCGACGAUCUCCUGUGCUACACAUCGUAUGUACCGAAUCGGCCCCCCGGGGCCCCCCGGGCCCCCCGGAAAGUAUUAUGUUACGCCGUUCGGAUCUGCAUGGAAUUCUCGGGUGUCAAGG | -0.58 |
| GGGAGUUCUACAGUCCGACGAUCAGUCCUGUGCUACACAUCGUAUGUACCGAAUCGGGGAGGGGAGGGGAAAAAAAGGGGAAAGUAUUAUGUUACGCCGUUCGGAUCUGCACUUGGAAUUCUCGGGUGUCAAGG | 0.714 |
| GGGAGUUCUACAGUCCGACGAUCUCCUGUGCUACACAUCGUAUGUACCGAAUCGGGGAAAGGGGAAAAAAAGGGGUUUGGGGAAAGUAUUAUGUUACGCCGUUCGGAUCUGCAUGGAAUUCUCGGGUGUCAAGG | 0.466 |
| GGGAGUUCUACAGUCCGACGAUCUGGCCCUGGUGGCAUGCGGGGAGGAAGAGGUCGCCUCAUGGAUCGUGGUGGUCCCGGUGGAAUGUUCAGAGGUGGCCGUGGUGGAGACAGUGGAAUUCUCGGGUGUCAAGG | -0.345 |
| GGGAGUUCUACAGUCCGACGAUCUGGCCCUGGUGGCAUGCGGAGAGGAAGAGGUGGCCUCAUGGAUCGUGGUGGUCCCGGUGGAAUGUUCAGAGGUGGCCGUGGUGGAGACAGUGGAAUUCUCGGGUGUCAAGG | 0.0701 |
| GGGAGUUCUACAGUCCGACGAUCAAGUCCUGUGCUACACAUCGUAUGUACCGAAUCGGAAAGGUUUUUGGAAAAAAAGGAAAGUAUUAUGUUACGCCGUUCGGAUCUGCACUUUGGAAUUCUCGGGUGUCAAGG | -1.24 |
| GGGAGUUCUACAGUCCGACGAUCCGGCCCUGGUGGCAUGCGGGGAGGAAGAGGUGGCCUCAUGGAUCGUGGUGGUCCCGGUGGAAUGUUCAGAGGUGGCCGUGGUGGAGACAGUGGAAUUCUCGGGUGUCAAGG | 0.0399 |
| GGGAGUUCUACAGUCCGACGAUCUGUGCUACACAUCGUAUGUACCGAAUCGGGGAAAAAAAGGGAAAAAAAGGGGAAAAAAAGGGGAAAGUAUUAUGUUACGCCGUUCGGAUCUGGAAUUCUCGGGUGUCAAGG | -0.0548 |
| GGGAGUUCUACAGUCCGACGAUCUAACUUUAGAGGAGGAUCGGAUGGAUAUGGCAGUGGACGUGGAUUUGGGGAUGGCUAUAAUGGGUAUGGAGGAGGACCUGGAGGUGGCAAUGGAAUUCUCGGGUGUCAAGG | 0.346 |

Block 3
Target: CCNF, cyclin fold, Cln2 fusion (human)
Method: yeast growth competition, sequencing
Medium: yeast
Notes: strong parent motif
Reference: not given
Reading: higher = stronger binding
Parent: ORC1 docking peptide (human); PRARKRLELGNLG
| Substitution | normalised enrichment score |
| --- | --- |
| PRARKRLELGNLS [G13S] | 3.6 |
| PRAEKRLELGNLG [R4E] | 0.626 |
| PRARKWLELGNLG [R6W] | 1.69 |
| PMARKRLELGNLG [R2M] | 4.03 |
| FRARKRLELGNLG [P1F] | 2.56 |
| PRARKRLMLGNLG [E8M] | 2.82 |
| PRARKRLELGNLQ [G13Q] | 2.59 |
| PRAGKRLELGNLG [R4G] | 1.37 |
| PRARKRHELGNLG [L7H] | 0.428 |
| PRARIRLELGNLG [K5I] | 1.36 |
| PRARKRLELGALG [N11A] | 3.03 |
| PRARKELELGNLG [R6E] | 1.68 |
| PRARKRLELFNLG [G10F] | 2.63 |
| PRARKRLELYNLG [G10Y] | 4.74 |
| PRARKRLELVNLG [G10V] | 2.34 |
| PRQRKRLELGNLG [A3Q] | 1.77 |
| PRARKRLELGNLY [G13Y] | 2.57 |

Block 4
Target: Histone acetyltransferase KAT6A, winged helix 2, GST fusion (KAT6A, Homo sapiens, UniProt Q92794, residues 85-181)
Method: protein binding microarray
Form: double-stranded DNA, one strand shown
Medium: in vitro
Concentration: not given
Notes: 8-mer, flanks averaged, mean of 2 arrays, mostly near background
Reference: not given
Reading: higher = stronger binding
Target sequence (chain): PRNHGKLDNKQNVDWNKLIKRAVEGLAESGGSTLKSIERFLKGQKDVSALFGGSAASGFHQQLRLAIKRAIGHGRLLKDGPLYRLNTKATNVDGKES
| Strand | E-score |
| --- | --- |
| CCCTTGAG | 0.212 |
| AGCGCTAG | 0.0293 |
| GCATCCGA | 0.11 |
| CAACTGGC | 0.0952 |
| CCGTCCAA | 0.0198 |
| ATGATCTC | 0.0603 |
| AAACGAGA | 0.109 |
| CTGCGTTC | 0.168 |
| CACTGCTC | 0.0316 |
| CCTAACAG | 0.082 |
| CGATTTCA | -0.00873 |
| CTTTCCGC | 0.136 |
| CACCCCAG | -0.0821 |
| CTTGTACA | -0.176 |
| CACTGTAA | 0.028 |
| ATAAAACG | -0.0039 |
| GACGGCGC | 0.094 |
| TCAATGCA | -0.0489 |
| ATTCACTG | -0.0968 |
| AAGTCTAA | -0.134 |
| GAGCTGTA | -0.2 |
| CCAGTCCG | 0.112 |
| TGTACCAA | -0.0463 |
| GGATAGCC | 0.0435 |
| CACAGCCA | -0.0185 |

Repeated from above (block 4):
| Strand | E-score |
| --- | --- |
| CGATTTCA | -0.00873 |
| CTTTCCGC | 0.136 |
| CACCCCAG | -0.0821 |
| CTTGTACA | -0.176 |
| CACTGTAA | 0.028 |
| ATAAAACG | -0.0039 |
| GACGGCGC | 0.094 |
| TCAATGCA | -0.0489 |
| ATTCACTG | -0.0968 |
| AAGTCTAA | -0.134 |
| GAGCTGTA | -0.2 |
